{"data": "Values quoted from earlier work as cited in several papers", "note": "Protocols differ between the studies behind these lines. Numbers after ± are the reported error."}
{"Structure (SMILES)": "O=C1c2cccc3c2[C@H](CCC3)CN1[C@@H]1CN2CCC1CC2", "test system": "healthy volunteers, plasma", "setting": "oral, dose not given, netupitant-palonosetron alone, ketoconazole study", "endpoint": "Vz/F", "result": "923 L"}
{"Structure (SMILES)": "O=C1c2ccccc2-c2c1c1ccc([N+](=O)[O-])cc1c(=O)n2CCCN1CCOCC1", "tested on": "lung HOP-62", "test": "cell growth", "endpoint": "GI50", "result": "21 nM"}
{"Structure (SMILES)": "CC[C@H](C)CCCCC(=O)N[C@@H](CCN)C(=O)N[C@H](C(=O)N[C@@H](CCN)C(=O)N[C@H]1CCNC(=O)[C@H]([C@@H](C)O)NC(=O)[C@H](CCN)NC(=O)[C@H](CCN)NC(=O)[C@H](CC(C)C)NC(=O)[C@@H](Cc2ccccc2)NC(=O)[C@H](CCN)NC1=O)[C@@H](C)O", "test system": "human patients with renal insufficiency", "setting": "intravenous, dose not given, population PK model", "endpoint": "peripheral volume of distribution", "result": "10.6 L"}
{"Structure (SMILES)": "COc1cc2nccc(Oc3ccc(NC(=O)C4(C(=O)Nc5ccc(F)cc5)CC4)cc3)c2cc1OC", "tested on": "hiPSC-derived cardiomyocytes", "test": "contractility", "setting": "concentration not given, 72 h, at effective concentration", "how to read": "baseline: baseline", "endpoint": "log2 fold change", "result": 1.37}
{"Structure (SMILES)": "O=C(O)CNC(=O)c1ccccc1[131I]", "test system": "normal rat, heart", "setting": "60 min, together with: co-injected 99mTc-1", "endpoint": "percent injected dose", "result": "0 %ID"}
{"Structure (SMILES)": "C[C@@H](Oc1cc(-c2cnn(C3CCNCC3)c2)cnc1N)c1c(Cl)ccc(F)c1Cl", "tested on": "hiPSC-derived cardiomyocytes", "test": "contractility", "setting": "72 h", "endpoint": "lowest effective concentration", "result": "1.91 µM"}
{"Structure (SMILES)": "O=C1c2ccccc2-c2c1c1ccc(Br)cc1c(=O)n2CCCn1ccnc1", "tested on": "NCI-60 panel mean", "test": "cell growth", "endpoint": "GI50", "result": "1260 nM"}
{"Structure (SMILES)": "CS(=O)(=O)CCNCc1ccc(-c2ccc3ncnc(Nc4ccc(OCc5cccc(F)c5)c(Cl)c4)c3c2)o1", "tested on": "hiPSC-derived cardiomyocytes", "test": "contractility", "setting": "72 h", "endpoint": "lowest effective concentration", "result": "11 µM"}
{"Structure (SMILES)": "CC[C@H](C)[C@H](NC(=O)[C@H](CCCCN)NC(=O)[C@H](CCCCN)NC(=O)[C@H](Cc1ccccc1)NC(=O)[C@H](CC(C)C)NC(=O)[C@@H](CCCCN)NC(=O)[C@@H](N)CCCCN)C(=O)N[C@@H](CC(C)C)C(=O)N[C@@H](CCCCN)C(=O)N[C@@H](Cc1ccc(O)cc1)C(=O)N[C@@H](CC(C)C)C(N)=O", "test system": "horse erythrocytes 5 % v/v", "setting": "150 µM", "endpoint": "hemolysis", "result": "27 ± 0.7%"}
{"Structure (SMILES)": "CCCS(=O)(=O)Nc1ccc(F)c(C(=O)c2c[nH]c3ncc(-c4ccc(Cl)cc4)cc23)c1F", "tested on": "hiPSC-derived cardiomyocytes", "setting": "72 h, tested 0 to 100 µM", "endpoint": "beating cessation concentration", "result": "33 µM"}
{"Structure (SMILES)": "Nc1nc2c(nc(Br)n2[C@@H]2O[C@@H]3COP(=O)(O)O[C@H]3[C@H]2O)c(=O)[nH]1", "tested on": "PDE5", "test": "cyclic nucleotide hydrolysis, substrate or inhibitor, isothermal titration calorimetry", "endpoint": "Km or Ki", "result": "79200 nM"}
{"Structure (SMILES)": "C[C@@H](c1nc(-c2ccc(C#N)cc2)cs1)[C@](O)(Cn1cncn1)c1cc(F)ccc1F", "tested on": "CYP1A2", "test": "enzyme activity, inhibitor", "setting": "together with: phenacetin O-deethylation", "endpoint": "IC50", "result": "38500 nM"}
{"Structure (SMILES)": "O=C1c2ccccc2-c2c1c1ccc([N+](=O)[O-])cc1c(=O)n2C[C@H](O)CO", "tested on": "lung HOP-62", "test": "cell growth", "endpoint": "GI50", "result": "89 nM"}
{"Structure (SMILES)": "CC(=O)Nc1cccc(-n2c(=O)n(C3CC3)c(=O)c3c(Nc4ccc(I)cc4F)n(C)c(=O)c(C)c32)c1", "tested on": "hiPSC-derived cardiomyocytes", "setting": "72 h, tested 0 to 100 µM", "endpoint": "beating cessation concentration", "result": "100 µM"}
{"Structure (SMILES)": "CC(C)(c1ccc(O)cc1)c1ccc(O)cc1", "tested on": "Xenopus laevis", "test": "refers to: female phenotype frequency", "test system": "tadpoles", "how to read": "lowest effective", "endpoint": "feminizing concentration", "result": "23 µg/L"}
{"Structure (SMILES)": "O=C1c2ccccc2-c2c1c1ccc([N+](=O)[O-])cc1c(=O)n2CCCn1ccnc1", "tested on": "lung HOP-62", "test": "cell growth", "endpoint": "GI50", "result": "190 nM"}
{"Structure (SMILES)": "Nc1nc2c(nc(Sc3ccc(Cl)cc3)n2C2O[C@@H]3COP(=O)(O)O[C@H]3[C@H]2O)c(=O)[nH]1 (stereo in doubt)", "tested on": "PDE4D", "test": "cyclic nucleotide hydrolysis, substrate or inhibitor, isothermal titration calorimetry", "endpoint": "Km or Ki", "result": "53400 nM"}
{"Structure (SMILES)": "Cc1ccccc1-c1cc(N2CCN(C)CC2)ncc1N(C)C(=O)C(C)(C)c1cc(C(F)(F)F)cc(C(F)(F)F)c1", "test system": "healthy volunteers, plasma", "setting": "oral, dose not given, netupitant-palonosetron combination, together with: oral contraceptives", "endpoint": "half-life", "result": "75.3 h"}
{"note": "A few entries again:"}
{"Structure (SMILES)": "O=C1c2ccccc2-c2c1c1ccc([N+](=O)[O-])cc1c(=O)n2CCCn1ccnc1", "tested on": "lung HOP-62", "test": "cell growth", "endpoint": "GI50", "result": "190 nM"}
{"Structure (SMILES)": "Nc1nc2c(nc(Sc3ccc(Cl)cc3)n2C2O[C@@H]3COP(=O)(O)O[C@H]3[C@H]2O)c(=O)[nH]1 (stereo in doubt)", "tested on": "PDE4D", "test": "cyclic nucleotide hydrolysis, substrate or inhibitor, isothermal titration calorimetry", "endpoint": "Km or Ki", "result": "53400 nM"}
